Measured values gathered from unrelated publications.
Parts stem from different laboratories: compare values within a part only.

Study 1 — technique: RNA Bind-n-Seq; molecule type: RNA; medium: in vitro; concentration: 365 nM; relative to: no-protein control; direction: higher = stronger binding
Target: RNA binding protein fox-1 homolog 2, RRM domain, GST-SBP tag (RBFOX2, Homo sapiens, UniProt O43251-10, residues 100-194)
Notes: natural RNA segment, single round, ends assumed
Construct (chain): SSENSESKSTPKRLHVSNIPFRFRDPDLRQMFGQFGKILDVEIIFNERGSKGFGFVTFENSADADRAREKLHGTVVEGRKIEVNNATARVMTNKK
`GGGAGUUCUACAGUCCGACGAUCUGUUAGUGGUAGCGUGGCUCACUCCACUUGGAGGUGGCGGCCGUCUGACCGUGUGUUACUGCUUUGCCGACGGGGCCUCCCGGCCCUGAUGCGUGUACACUCUGCGGGCUUGGAAUUCUCGGGUGCCAA`: “RBNS enrichment (R)” 0.609.
`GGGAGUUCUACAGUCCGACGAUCAGUAAAAAUGAUGGUAAUUAAAAAAAAUCCUCAGUAUCCCUAGCUUGUCUAUUAACUGUGAUAAUCUGACUUGAGUCAGAUUGAAUAUUUGGAGUGCUUCCCCAGAAUAAUGGAAUUCUCGGGUGCCAA` — result for “RBNS enrichment (R)”: 0.495.
Under “RBNS enrichment (R)”, `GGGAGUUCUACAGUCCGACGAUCAGUCUGAAAUUUAACGCCUACUUCCUAUAACACAUUUUAGGAUGCUUUCUGAUGAUUUAAACUUUGCAGUUUACUUUUUCAUCCUGUAUGAGAAGUACUAAGUAAGUUUAUGGAAUUCUCGGGUGCCAA` is recorded as 0.286.
`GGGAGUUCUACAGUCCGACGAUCGCACUCCAUAGUCUCAAACUGUCCCCCUUAUGACCAACAGCACAUUUGUGAAGAGGUUCGCAGGGAUAAGGGGUGCACUUUAUAGCUAUGGAAACAUGAGAUUCUCCUCUUGGAAUUCUCGGGUGCCAA` — result for “RBNS enrichment (R)”: 0.435.
For `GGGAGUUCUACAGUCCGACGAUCGUAAAUUAACUCACCAGAUUUACUGGGCCUGAACUCAUUCUCUUCUUGCUAUAUGAUUUAGCAAGUUCUAGAAGGUCUCCAAGACAAUAAUUACAUUGGCACAAUGUAUAUGGAAUUCUCGGGUGCCAA`, “RBNS enrichment (R)” read 0.475.
`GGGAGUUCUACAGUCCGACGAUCCAGGCCUUUCCCUGCCGGCCCCCCAAGGAUGGGGUUCUUGUCCACGGGGCUCACUCUGGCCCCCUAUUGUCUCCAAGGUCCCAUUUUCCCCCUGUGUUUUCACGCAGGUCUGGAAUUCUCGGGUGCCAA` — result for “RBNS enrichment (R)”: 0.304.
`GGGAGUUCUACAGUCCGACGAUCUCCCGCCUCCCUCUCAGAGGCCUGCUGCCAGUGCAGCCACUGGCUUGGAACACCUUGGGGUCCCUCCACCCCACAGAACCUUCAACCCAGUGGGUCUGGGAUAUGGCUGCUGGAAUUCUCGGGUGCCAA` — result for “RBNS enrichment (R)”: 0.278.
Under “RBNS enrichment (R)”, `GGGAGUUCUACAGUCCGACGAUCAAGCUUUGAGUUAAAGGAUUUGACGACCACAAAAAACCAAAACCAAAACCAAAAACAAAAACCCAGUGGAAGAUCUCAGACAAAAAUCCAACUGGACGGGCUACUCACAAUGGAAUUCUCGGGUGCCAA` is recorded as 0.535.
`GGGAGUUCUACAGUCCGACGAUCAUCCUUAAUACUGGGAACAGAAUACAACCCAUAUAAAUCAGAUGCAGGUGGUAGUCACAUCACCAGAGUGAUCAGUAUAAAUUUUCUUGGUGUAUCCUUUUCCUUUCAACUGGAAUUCUCGGGUGCCAA`: “RBNS enrichment (R)” 0.472.
`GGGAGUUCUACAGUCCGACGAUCGUUGAAAUCAUUUGAACUAAUCAAGGAAUAAAUCCUAAUGUUCUGGGACUUUAUUUUCACAUGUUAAAUGCUGGAAUAUAUUAUGAAAAUGUUUUCAAGAAAUCACUUAAUGGAAUUCUCGGGUGCCAA` — result for “RBNS enrichment (R)”: 0.394.
`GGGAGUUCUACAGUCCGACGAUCGUGCUCAGCCCUGCCCAUGGCUGUGCAGCUCCCUCCGUGCCUCAGAUCUGCUGUAGCCAGUGCAGACCUCACUGUCGUGUCCAUGCCACCCCCGGCAUGGCUCCAGGUGGUGGAAUUCUCGGGUGCCAA` — result for “RBNS enrichment (R)”: 0.378.
`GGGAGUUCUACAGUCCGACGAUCCAUAGAAAUAUCAAACAGUGAAAAACCAAACCUCCACAAGGCAACAGCCACAGCAGCCUCUCCUUGCCACUUGCAAGACCCUAGGAGUUGCAGACUUGAAAAAGCUCUGUUGGAAUUCUCGGGUGCCAA`: “RBNS enrichment (R)” 0.542.

Study 2 — technique: RNA Bind-n-Seq; molecule type: RNA; medium: in vitro; concentration: 200 nM; notes: whole 134-nt RNA, ends assumed; with: 150 mM KCl; relative to: input library; direction: higher = stronger binding
Target: Ras GTPase-activating protein-binding protein 1, full length (G3BP1, Homo sapiens, UniProt Q13283)
Chain of UniProt Q13283 (whole entry, looked up): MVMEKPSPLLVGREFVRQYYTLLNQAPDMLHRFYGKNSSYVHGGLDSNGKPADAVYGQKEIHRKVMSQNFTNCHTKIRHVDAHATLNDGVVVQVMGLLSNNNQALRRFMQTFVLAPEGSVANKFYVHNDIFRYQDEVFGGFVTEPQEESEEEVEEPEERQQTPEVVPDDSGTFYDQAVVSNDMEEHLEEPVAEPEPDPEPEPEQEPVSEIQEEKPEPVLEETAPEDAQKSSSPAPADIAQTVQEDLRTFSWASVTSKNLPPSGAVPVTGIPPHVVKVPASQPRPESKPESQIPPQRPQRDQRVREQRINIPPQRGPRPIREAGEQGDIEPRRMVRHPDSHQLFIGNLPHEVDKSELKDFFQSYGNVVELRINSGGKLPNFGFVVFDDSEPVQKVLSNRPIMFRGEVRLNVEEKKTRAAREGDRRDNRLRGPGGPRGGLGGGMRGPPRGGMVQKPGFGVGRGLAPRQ
`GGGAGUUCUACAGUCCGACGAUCGCAGGAAGUAAAAACAAAUGGAAAUGCUUCGGAUAGUGGCAGGGGUGGGGGUUGCUAAGGAAAGAAAGGGAUGGGAGUGGGUAAAGAGUUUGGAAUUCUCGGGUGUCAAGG` gave a log2 enrichment of 0.705.
For `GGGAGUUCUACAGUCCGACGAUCUGUGCUACACAUCGUAUGUACCGAAUCGGGGUUUUUGGGGAAAAAAAGGGGUUUUUUUGGGGAAAGUAUUAUGUUACGCCGUUCGGAUCUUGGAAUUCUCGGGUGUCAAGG`, the log2 enrichment was -0.118.
`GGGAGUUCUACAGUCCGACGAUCGCAGGAAGUAAAAACACAUGGAAAUGCUUCGGAUAGUGGCAGGGGUGGGGGUUGCUAAGGAAAGGGUGGGAUGGGAGUGGGUAAAGAGUUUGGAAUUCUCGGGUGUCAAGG` has a log2 enrichment of 0.833.
`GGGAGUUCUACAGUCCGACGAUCCACAGACAACACGCACCCACACAGACACAGAGGGAAGGGGUUGGGAUGGGGACAGGGUGCACAGCAGGUCGGGGUAGGACCCCAGCCCCUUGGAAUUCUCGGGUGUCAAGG` gave a log2 enrichment of 1.91.
`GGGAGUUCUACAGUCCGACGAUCCUCAAGUCCUGUGCUACACAUCGUAUGUACCGAAUCGGUUUGGUUUGGGUUUGGAAAGUAUUAUGUUACGCCGUUCGGAUCUGCACUUCCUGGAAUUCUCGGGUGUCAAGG` has a log2 enrichment of -0.452.
`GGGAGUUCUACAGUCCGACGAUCUAACUUUAGAGGAGGAUCUGAUGGAUAUGGCAGUGGACGUCGAUUUGGGGAUGGCUAUAAUGGGUAUGGAGGAGGACCUGGAGGUGGCAAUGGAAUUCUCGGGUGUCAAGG` has a log2 enrichment of 0.277.
`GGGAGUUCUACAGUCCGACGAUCCUGUGCUACACAUCGUAUGUACCGAAUCGGGCCCCCCCGGGCCCCCCCGGGGCCCCCCCGGAAAGUAUUAUGUUACGCCGUUCGGAUCUGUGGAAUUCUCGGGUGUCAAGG` has a log2 enrichment of -0.563.
`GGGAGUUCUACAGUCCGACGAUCUCCUGUGCUACACAUCGUAUGUACCGAAUCGUGUGUGUGUGUGUGUGUGUGUGUGUGUGAAAGUAUUAUGUUACGCCGUUCGGAUCUGCAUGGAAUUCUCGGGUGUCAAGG` has a log2 enrichment of 1.07.
The log2 enrichment of `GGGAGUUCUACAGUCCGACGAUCCACAGACAACACGCACCCACACAGACACAGAGGGAAGGGGUUGGGAUGGGGACAGGGUGCACAGCAGUGCGGGGUAGGACCCCAGCCCCUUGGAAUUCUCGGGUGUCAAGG` is reported as 1.85.
With `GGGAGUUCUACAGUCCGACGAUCUGGGAGGUGGUUUUUGUUUAUUUUUUUAGCUCAUUUCCAGGGGUGGGAAUUUUUUUUUAAUAUGUGUCAUGAAUAAAGUUGUUUUUGAAAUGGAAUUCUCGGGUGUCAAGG` the log2 enrichment was 0.437.

Study 3 — technique: protein-binding microarray; molecule type: double-stranded DNA, one strand shown; medium: in vitro; concentration: 2200 nM top; notes: 60-bp whole probe; with: salmon DNA 0.4 mg/ml; relative to: random background probes; direction: higher = stronger binding; shared flanks, not repeated: GCCTAGCAC … GTCTTGATTCGCTTGACGCTGCTG
Target: Interferon regulatory factor 7, full length, phosphomimetic (IRF7, Homo sapiens, UniProt Q92985, residues 1-503, S471D/S472D/S475D/S476D/S477D/S483D/S484D/S487D)
Chain of UniProt Q92985 (whole entry, unmodified, looked up): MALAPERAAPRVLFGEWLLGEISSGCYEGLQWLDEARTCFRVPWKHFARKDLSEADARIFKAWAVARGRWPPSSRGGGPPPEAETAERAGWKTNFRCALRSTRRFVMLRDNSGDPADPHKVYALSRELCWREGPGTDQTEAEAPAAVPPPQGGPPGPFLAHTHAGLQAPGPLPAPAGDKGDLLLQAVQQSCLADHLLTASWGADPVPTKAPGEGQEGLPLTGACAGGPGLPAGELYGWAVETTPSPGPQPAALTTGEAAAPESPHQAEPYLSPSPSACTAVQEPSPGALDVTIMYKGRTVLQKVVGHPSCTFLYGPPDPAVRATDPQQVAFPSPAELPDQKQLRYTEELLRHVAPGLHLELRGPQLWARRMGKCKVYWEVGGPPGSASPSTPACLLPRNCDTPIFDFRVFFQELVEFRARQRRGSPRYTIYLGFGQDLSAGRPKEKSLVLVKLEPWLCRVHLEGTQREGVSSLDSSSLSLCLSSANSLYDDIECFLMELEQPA
`TTCGGTTTCGGGACTGGGTTAGTGCTA` — result for “fitted relative affinity”: 5.77 z-score.
`TTAGGACTGCTTATCCTTTTGTGCTAG`: “fitted relative affinity” 0.562 z-score.
`TCACAGTTTAATATCTAACTGTGCTAG` — result for “fitted relative affinity”: 0.589 z-score.
For `TTAGGACTGGACACTGGGTTAGTGCTA`, “fitted relative affinity” read -0.651 z-score.
Under “fitted relative affinity”, `TCATCATTATTGTGTCAAACTGTGCTA` is recorded as 0.752 z-score.
`TTAGATCTCAGTATCTATTAGTGCTAG`: “fitted relative affinity” 0.307 z-score.
`TTAGGAATGGGGTTTCGGTTAGTGCTA` — result for “fitted relative affinity”: 3.27 z-score.
`TCAAGTTTCCATTTTCAACTGTGCTAG` — result for “fitted relative affinity”: 4.88 z-score.
`TCATCTCTGGCCCTCCTACTGTGCTAG`: “fitted relative affinity” 1.31 z-score.
`CTTTCTCCCAAGTCTTGTTTTGTGCTA`: “fitted relative affinity” 1.8 z-score.
Under “fitted relative affinity”, `GACGGTATCCTGCTCCTGACGTGCTAG` is recorded as 0.778 z-score.
`GACGATATCGGGACGGGAGACGTGCTA` — result for “fitted relative affinity”: -0.277 z-score.
`GATGATTTCGGGTATCGAGACGTGCTA`: “fitted relative affinity” 2.87 z-score.
`TTAGGTTTCGGGTTCCGGTTAGTGCTA` — result for “fitted relative affinity”: 10.2 z-score.
For `GTCGATTTCAGTCTCGAGACGTGCTAG`, “fitted relative affinity” read 1.66 z-score.
`CACCCTTGGAAGTATGACTCTGTGCTA`: “fitted relative affinity” 0.337 z-score.
`TTAGACCTCAGTATCGATTAGTGCTAG`: “fitted relative affinity” 0.0625 z-score.
`GACGGTTTCGGGTTTCGGAACGTGCTA` — result for “fitted relative affinity”: 9.63 z-score.
`TCATTTTTCTGAACCATACTGTGCTAG`: “fitted relative affinity” 2 z-score.
`CACGGTCTCGGACTGGGGACGTGCTAG` — result for “fitted relative affinity”: -0.364 z-score.
`TTAGGACTGTGGTTTCGGTTAGTGCTA` — result for “fitted relative affinity”: 4.74 z-score.
Under “fitted relative affinity”, `GTCGGACTGGACTTTCGGGACGTGCTA` is recorded as 2.4 z-score.
`TTGGGTTTCGGTTCCGGTTAGTGCTAG` — result for “fitted relative affinity”: 9.98 z-score.
`GACGAACTGGGGTTTCGAGCCGTGCTA`: “fitted relative affinity” 0.513 z-score.
For `ATCGATTTCTTCCCTGTGAAAGTGCTA`, “fitted relative affinity” read 1.87 z-score.

Study 4 — technique: protein binding microarray; molecule type: double-stranded DNA, one strand shown; medium: in vitro; concentration: not given; relative to: not given; direction: higher = stronger binding
Target: Histone acetyltransferase KAT6A, both winged helices, GST fusion (KAT6A, Homo sapiens, UniProt Q92794, residues 1-181)
Notes: 8-mer, flanks averaged, mean of 2 arrays, mostly near background
Construct (chain): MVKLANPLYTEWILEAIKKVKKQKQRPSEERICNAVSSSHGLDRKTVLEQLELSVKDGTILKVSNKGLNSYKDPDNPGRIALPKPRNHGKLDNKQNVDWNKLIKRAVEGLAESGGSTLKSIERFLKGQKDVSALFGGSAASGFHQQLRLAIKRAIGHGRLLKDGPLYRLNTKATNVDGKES
With `GAACGATA` the E-score was -0.0445.
`CAATACAC` has an E-score of 0.0214.
`CGCACAAA` gave an E-score of 0.104.
`AGAAAGCG` gave an E-score of 0.168.
The E-score of `ATACGCAT` is reported as 0.065.
`ATCATGTA` has an E-score of -0.0828.
`ACTGGAGG` gave an E-score of -0.123.
`CCGGGCCC` gave an E-score of 0.22.
For `ATTCGTCG`, the E-score was 0.0349.
With `GGCTTCCC` the E-score was 0.0552.
`GGAACCCA` has an E-score of -0.0215.
`AGCGTTAG` gave an E-score of -0.0272.
For `GCAATTAA`, the E-score was 0.081.
`CTAGCAGC` gave an E-score of -0.127.
`GTTGCAAA` gave an E-score of -0.0907.
The E-score of `GGCAAGCC` is reported as -0.0269.
With `ACTATTAT` the E-score was -0.0778.
With `ATCGAGGA` the E-score was -0.12.
`AAAGTACA` has an E-score of -0.0864.

Excerpt of the above (study 3):
For `GTCGATTTCAGTCTCGAGACGTGCTAG`, “fitted relative affinity” read 1.66 z-score.
`CACCCTTGGAAGTATGACTCTGTGCTA`: “fitted relative affinity” 0.337 z-score.
`TTAGACCTCAGTATCGATTAGTGCTAG`: “fitted relative affinity” 0.0625 z-score.
`GACGGTTTCGGGTTTCGGAACGTGCTA` — result for “fitted relative affinity”: 9.63 z-score.
`TCATTTTTCTGAACCATACTGTGCTAG`: “fitted relative affinity” 2 z-score.
